Measured values gathered from unrelated publications.
Numbered parts are unrelated; each lists some results of a single study.
Chain of UniProt Q96GD4 (whole entry, looked up): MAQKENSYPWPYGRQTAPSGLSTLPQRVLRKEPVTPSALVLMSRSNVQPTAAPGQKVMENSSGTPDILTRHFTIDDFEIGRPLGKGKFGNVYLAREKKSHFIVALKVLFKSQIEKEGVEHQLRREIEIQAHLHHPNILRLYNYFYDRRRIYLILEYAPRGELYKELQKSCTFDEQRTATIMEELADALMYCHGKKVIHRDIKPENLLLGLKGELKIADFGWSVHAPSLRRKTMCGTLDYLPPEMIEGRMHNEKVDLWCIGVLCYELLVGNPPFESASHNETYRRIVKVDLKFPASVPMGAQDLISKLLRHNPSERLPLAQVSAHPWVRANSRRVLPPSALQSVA
Chain of UniProt O95382 (whole entry, looked up): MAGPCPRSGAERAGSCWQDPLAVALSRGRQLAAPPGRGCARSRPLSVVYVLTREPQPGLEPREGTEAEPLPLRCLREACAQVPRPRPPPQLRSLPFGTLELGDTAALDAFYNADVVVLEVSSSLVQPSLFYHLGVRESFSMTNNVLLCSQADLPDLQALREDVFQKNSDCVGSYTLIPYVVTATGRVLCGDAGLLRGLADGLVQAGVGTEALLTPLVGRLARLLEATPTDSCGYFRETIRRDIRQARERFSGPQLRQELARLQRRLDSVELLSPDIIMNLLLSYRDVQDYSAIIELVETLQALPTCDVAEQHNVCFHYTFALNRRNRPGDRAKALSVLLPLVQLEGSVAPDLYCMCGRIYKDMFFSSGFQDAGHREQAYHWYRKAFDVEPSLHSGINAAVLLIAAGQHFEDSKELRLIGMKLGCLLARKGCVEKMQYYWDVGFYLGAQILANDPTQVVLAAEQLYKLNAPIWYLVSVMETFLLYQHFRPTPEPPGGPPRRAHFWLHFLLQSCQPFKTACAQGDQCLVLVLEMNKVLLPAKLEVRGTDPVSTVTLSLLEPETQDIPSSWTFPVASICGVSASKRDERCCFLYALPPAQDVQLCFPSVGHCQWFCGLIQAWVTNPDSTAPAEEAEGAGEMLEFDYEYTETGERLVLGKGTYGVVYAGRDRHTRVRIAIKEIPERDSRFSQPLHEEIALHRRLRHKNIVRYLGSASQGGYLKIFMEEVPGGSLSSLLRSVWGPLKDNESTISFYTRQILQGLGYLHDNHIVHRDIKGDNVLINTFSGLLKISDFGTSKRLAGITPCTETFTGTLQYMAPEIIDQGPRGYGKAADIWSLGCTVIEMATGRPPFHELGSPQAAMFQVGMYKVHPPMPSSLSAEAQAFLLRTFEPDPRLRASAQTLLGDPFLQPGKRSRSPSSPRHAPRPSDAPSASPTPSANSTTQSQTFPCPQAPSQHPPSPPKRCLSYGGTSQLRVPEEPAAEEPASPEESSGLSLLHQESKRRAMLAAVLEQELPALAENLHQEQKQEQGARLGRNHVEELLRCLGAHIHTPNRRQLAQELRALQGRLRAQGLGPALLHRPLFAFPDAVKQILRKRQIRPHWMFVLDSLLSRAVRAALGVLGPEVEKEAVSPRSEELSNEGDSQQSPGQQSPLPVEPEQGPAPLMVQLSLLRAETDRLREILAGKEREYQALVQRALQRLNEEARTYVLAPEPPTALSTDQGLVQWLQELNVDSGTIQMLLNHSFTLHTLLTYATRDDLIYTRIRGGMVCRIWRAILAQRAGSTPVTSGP
Chain of UniProt Q9Y616 (whole entry, looked up): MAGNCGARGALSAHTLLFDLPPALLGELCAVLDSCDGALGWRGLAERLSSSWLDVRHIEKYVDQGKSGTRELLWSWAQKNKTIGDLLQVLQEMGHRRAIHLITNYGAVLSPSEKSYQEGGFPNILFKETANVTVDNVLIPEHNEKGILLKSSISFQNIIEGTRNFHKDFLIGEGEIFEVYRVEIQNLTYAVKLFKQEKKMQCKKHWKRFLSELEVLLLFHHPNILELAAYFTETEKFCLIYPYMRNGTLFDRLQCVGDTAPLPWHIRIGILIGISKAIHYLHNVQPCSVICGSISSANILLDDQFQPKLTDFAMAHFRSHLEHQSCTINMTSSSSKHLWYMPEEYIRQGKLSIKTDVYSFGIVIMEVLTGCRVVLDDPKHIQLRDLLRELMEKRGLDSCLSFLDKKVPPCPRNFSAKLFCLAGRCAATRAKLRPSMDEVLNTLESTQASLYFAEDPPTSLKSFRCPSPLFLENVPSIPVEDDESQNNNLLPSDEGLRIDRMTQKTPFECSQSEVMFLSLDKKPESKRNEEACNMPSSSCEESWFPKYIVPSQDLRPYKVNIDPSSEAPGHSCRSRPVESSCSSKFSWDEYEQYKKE
Chain of UniProt Q7KZI7 (whole entry, looked up): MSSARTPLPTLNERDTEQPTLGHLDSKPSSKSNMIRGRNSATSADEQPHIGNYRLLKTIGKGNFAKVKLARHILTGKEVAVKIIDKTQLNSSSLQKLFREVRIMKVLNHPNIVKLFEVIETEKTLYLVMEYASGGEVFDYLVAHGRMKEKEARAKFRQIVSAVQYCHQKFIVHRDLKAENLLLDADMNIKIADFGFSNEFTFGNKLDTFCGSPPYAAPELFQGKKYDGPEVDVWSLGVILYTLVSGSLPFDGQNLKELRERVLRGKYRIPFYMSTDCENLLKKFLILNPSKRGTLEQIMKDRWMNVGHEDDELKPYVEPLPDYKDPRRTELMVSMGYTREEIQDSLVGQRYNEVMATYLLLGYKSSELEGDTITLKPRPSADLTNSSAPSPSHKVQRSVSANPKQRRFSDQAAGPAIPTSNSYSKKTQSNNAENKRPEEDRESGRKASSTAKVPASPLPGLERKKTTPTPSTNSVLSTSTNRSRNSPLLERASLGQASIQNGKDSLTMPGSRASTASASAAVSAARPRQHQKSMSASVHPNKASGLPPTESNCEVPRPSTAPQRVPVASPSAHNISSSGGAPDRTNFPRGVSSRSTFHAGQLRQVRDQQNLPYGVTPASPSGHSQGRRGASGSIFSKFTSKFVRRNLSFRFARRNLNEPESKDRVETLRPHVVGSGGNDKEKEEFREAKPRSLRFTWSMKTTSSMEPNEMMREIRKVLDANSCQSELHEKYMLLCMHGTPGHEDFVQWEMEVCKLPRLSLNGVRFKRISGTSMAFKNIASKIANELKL

Series 1
Target: Serine/threonine-protein kinase MRCK alpha (CDC42BPA, Homo sapiens, UniProt Q5VT25)
Chain of UniProt Q5VT25 (whole entry, looked up): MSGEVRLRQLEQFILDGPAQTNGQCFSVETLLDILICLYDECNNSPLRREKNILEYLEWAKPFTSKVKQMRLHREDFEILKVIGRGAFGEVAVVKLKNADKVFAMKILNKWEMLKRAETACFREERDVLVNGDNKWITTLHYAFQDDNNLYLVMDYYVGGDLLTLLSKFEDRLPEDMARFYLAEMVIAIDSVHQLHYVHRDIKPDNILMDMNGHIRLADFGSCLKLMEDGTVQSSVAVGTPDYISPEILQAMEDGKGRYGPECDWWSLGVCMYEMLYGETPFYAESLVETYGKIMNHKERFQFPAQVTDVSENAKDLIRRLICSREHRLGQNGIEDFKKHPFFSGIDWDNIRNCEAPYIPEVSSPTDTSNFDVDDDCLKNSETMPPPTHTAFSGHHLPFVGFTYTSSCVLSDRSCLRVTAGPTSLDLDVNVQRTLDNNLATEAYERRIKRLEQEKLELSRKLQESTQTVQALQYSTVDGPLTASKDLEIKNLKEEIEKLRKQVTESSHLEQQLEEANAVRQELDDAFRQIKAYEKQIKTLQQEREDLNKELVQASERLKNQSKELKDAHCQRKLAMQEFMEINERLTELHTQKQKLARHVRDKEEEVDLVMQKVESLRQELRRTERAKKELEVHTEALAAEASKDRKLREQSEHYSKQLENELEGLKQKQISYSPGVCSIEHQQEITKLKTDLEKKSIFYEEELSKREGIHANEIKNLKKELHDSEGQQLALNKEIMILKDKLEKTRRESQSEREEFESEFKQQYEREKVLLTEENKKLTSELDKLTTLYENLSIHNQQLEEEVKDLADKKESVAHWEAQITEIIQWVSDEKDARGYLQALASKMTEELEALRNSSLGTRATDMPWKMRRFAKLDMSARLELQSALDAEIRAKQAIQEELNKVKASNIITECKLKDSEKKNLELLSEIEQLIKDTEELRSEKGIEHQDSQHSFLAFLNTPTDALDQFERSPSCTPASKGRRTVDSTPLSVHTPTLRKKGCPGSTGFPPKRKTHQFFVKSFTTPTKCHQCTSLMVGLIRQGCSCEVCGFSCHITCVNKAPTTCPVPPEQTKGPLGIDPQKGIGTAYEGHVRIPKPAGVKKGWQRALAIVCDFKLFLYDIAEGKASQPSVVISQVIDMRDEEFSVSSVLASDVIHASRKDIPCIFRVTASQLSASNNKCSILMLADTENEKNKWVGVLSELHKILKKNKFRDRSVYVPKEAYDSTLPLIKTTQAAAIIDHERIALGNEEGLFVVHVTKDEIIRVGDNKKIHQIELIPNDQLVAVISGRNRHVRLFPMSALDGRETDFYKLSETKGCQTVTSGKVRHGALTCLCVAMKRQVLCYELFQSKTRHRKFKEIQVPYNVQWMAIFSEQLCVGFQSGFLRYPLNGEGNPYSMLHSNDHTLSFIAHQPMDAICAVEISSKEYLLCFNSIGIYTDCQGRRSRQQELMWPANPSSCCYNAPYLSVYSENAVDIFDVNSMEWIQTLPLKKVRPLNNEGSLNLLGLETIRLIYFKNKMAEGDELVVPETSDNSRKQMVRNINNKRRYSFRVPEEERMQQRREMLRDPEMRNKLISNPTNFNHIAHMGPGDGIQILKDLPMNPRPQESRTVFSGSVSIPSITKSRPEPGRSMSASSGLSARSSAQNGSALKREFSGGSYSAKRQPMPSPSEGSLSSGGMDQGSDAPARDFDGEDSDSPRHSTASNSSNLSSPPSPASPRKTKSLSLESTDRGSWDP
Effect on: enzyme activity
Action: inhibitor
Concentration: 0.5 µM
Reference: control
SMILES	remaining activity [%]
CC(C)n1cnc2c(Nc3cccc(Cl)c3)nc(NCCO)nc21	83.9
O=C1c2ccccc2-c2nc3nnnn3nc21	91.6
CC(C)N(CCC(=O)c1ccc2ccccc2c1)Cc1ccccc1	99.4
O=C(O)/C=C/c1cc(Br)c(Br)c(Br)c1Br	98.5
c1cc(-c2cnn3cc(-c4ccc(OCCN5CCCCC5)cc4)cnc23)ccn1	100
C[C@@H](N)[C@H]1CC[C@H](C(=O)Nc2ccncc2)CC1	83.4
O=C1NC(=O)/C(=C/c2ccc3c(c2)OC(F)(F)O3)S1	98.5
NC(=O)c1ccc(-c2nc(-c3ccc4c(c3)OCCO4)c(-c3ccccn3)[nH]2)cc1	99.3
N#CC(c1ccnc(NCCc2cccnc2)n1)c1nc2ccccc2s1 (stereo not drawn)	99.6
COc1cc2c(Nc3ccc(Br)cc3F)ncnc2cc1OCC1CCN(C)CC1	83.7
CCN(CC)CCCCN1c2ccccc2Oc2ccc(Cl)cc21	111
O=C(c1ccccc1)c1ccc(N2CCOCC2)cc1O	95.5
CNc1cc2c(Nc3cccc(Br)c3)ncnc2cn1	95.2
FC(F)(F)c1ccc(/C=C/c2nc(COc3ccc(CCCCn4ccnn4)cc3)co2)cc1	103
CCCCc1c(-c2ccc(O)cc2)[nH]c2nccnc12	99.3
O=Nc1c(-c2c(O)[nH]c3ccccc23)[nH]c2ccccc12	93.7
NC(=O)c1cccc(-c2cc(Nc3ccc(OC(F)(F)F)cc3)ncn2)c1	99.3
N#C/C(=C(/N)SC1C=CC=CC1)c1cccc(C(O)c2ccncc2)c1 (stereo not drawn)	104
Clc1ccc(Nc2nnc(Cc3ccncc3)c3ccccc23)cc1	78.3
O=c1c(-c2ccc(F)cc2)c(-c2ccncc2)[nH]n1-c1ccc(Cl)cc1	98
COc1cc2c(N3CCN(C(=O)Nc4ccc(OC(C)C)cc4)CC3)ncnc2cc1OCCCN1CCCCC1	106
CC(C)(C)c1nc2c3cc[nH]c(=O)c3c3cc(F)ccc3c2[nH]1	95.7
Nc1nc(Nc2ccc(S(N)(=O)=O)cc2)nn1C(=S)Nc1c(F)cccc1F	54.6

Series 2
SMILES: Cc1ccc(NC(=O)c2ccnc(C(F)(F)F)c2)cc1-c1cc(OCCO)nc(N2CCOCC2)c1
Concentration: 1 µM
target	method	refers to	reference	remaining binding
MARK2 (Homo sapiens, UniProt Q7KZI7)	competitive binding panel	–	vehicle	99%
MAP3K6 (Homo sapiens, UniProt O95382)	competitive binding panel	ASK2	vehicle	87%
STK11 (Homo sapiens, UniProt Q15831)	competitive binding panel	LKB1	vehicle	100%
PIK3CA (Homo sapiens, UniProt P42336, I800L)	competitive binding panel	–	vehicle	88%
CILK1 (Homo sapiens, UniProt Q9UPZ9)	competitive binding scan	–	–	94%
TIE1 (Homo sapiens, UniProt P35590)	competitive binding panel	–	vehicle	33%
IRAK3 (Homo sapiens, UniProt Q9Y616)	competitive binding panel	–	vehicle	99%
STK17B (Homo sapiens, UniProt O94768)	competitive binding panel	DRAK2	vehicle	100%
EGFR (Homo sapiens, UniProt P00533, del752-759)	competitive binding panel	–	vehicle	88%

Series 3
Structure (SMILES): C[C@@]1(Cc2ccc(C#N)cc2)C(=O)N(c2cc(Cl)cc(Cl)c2)c2ncc(C(=O)NC3(c4nc(C5CCC5)no4)CC3)n21
Effect on: cell-free assay
Method: competition with immobilised ligand
Concentration: 1 µM
target	remaining binding [%]
CAMK1 (Homo sapiens, UniProt Q14012)	93
Tyrosine-protein kinase ABL1, phosphorylated (ABL1, Homo sapiens, UniProt P00519, Y253F)	95
FLT3 (Homo sapiens, UniProt P36888, D835V)	100
PDGFRB (Homo sapiens, UniProt P09619)	100
FLT3 (Homo sapiens, UniProt P36888, D835Y)	100
Tyrosine-protein kinase ABL1, phosphorylated (ABL1, Homo sapiens, UniProt P00519)	100
EGFR (Homo sapiens, UniProt P00533, L858R/T790M)	79
CAMKK2 (Homo sapiens, UniProt Q96RR4)	100
RIPK4 (Homo sapiens, UniProt P57078)	100
STK38L (Homo sapiens, UniProt Q9Y2H1)	48
FLT1 (Homo sapiens, UniProt P17948)	99
RET (Homo sapiens, UniProt P07949, M918T)	100
TNNI3K (Homo sapiens, UniProt Q59H18)	72
Aurora kinase B (AURKB, Homo sapiens, UniProt Q96GD4)	100

Series 4
Host: mouse
Medium: microsomes or S9
Concentration: 2 µM
Time: 0.5 h
Compound	remaining compound
CCOc1cc(=O)n2c(c1C(=O)NCCCOC(C)C)CCCCC2	47.2%
Cc1ccc(-n2nncc2-c2ccc(O)cc2O)cc1	70.7%
CCOC(=O)Nc1cc(-n2c(=O)nc(N(C)C)n(C)c2=O)c(F)cc1Cl	96.2%
CC(C)CC(=O)Nc1ccc(-n2cnc(C(=O)NCc3ccccc3Cl)c2)nc1	95.7%
COc1ccc(Nc2nc(NCCN3CCOCC3)nc(Nc3ccc(OC)cc3)n2)cc1	16.6%
c1ccc(C(CCNc2ncnc3[nH]cnc23)c2ccccc2)cc1	17.2%
CCC(Oc1cc(C)ccc1Cl)C(=O)Nc1cccnc1 (stereo not drawn)	0.0424%
O=C1NN=C(c2ccc(OCCN3CCOCC3)cc2)CC1c1ccc(Cl)cc1 (stereo not drawn)	24.6%
N#Cc1ccccc1COc1ccc2c(c1)OCO2	23.5%
CN1CCCc2c(c3cc(F)ccc3n2-c2ccc(F)cc2)C1	71.7%
Cc1cccc2c(=O)n(CC(=O)NCC3CC4c5ccccc5C3c3ccccc34)cnc12 (stereo not drawn)	1.28%

Repeated from above (series 1):
SMILES	remaining activity [%]
NC(=O)c1cccc(-c2cc(Nc3ccc(OC(F)(F)F)cc3)ncn2)c1	99.3
N#C/C(=C(/N)SC1C=CC=CC1)c1cccc(C(O)c2ccncc2)c1 (stereo not drawn)	104
Clc1ccc(Nc2nnc(Cc3ccncc3)c3ccccc23)cc1	78.3
O=c1c(-c2ccc(F)cc2)c(-c2ccncc2)[nH]n1-c1ccc(Cl)cc1	98
